# Assay results of several laboratories.
# Each numbered part is a random draw from the data of one study; scales do not carry over between parts.

# Block 1
# Target: Hepatocyte nuclear factor 3-alpha (Foxa1, Mus musculus, UniProt P35582, residues 1-468, full length assumed)
# UniProt P35582, sequence (whole entry, looked up): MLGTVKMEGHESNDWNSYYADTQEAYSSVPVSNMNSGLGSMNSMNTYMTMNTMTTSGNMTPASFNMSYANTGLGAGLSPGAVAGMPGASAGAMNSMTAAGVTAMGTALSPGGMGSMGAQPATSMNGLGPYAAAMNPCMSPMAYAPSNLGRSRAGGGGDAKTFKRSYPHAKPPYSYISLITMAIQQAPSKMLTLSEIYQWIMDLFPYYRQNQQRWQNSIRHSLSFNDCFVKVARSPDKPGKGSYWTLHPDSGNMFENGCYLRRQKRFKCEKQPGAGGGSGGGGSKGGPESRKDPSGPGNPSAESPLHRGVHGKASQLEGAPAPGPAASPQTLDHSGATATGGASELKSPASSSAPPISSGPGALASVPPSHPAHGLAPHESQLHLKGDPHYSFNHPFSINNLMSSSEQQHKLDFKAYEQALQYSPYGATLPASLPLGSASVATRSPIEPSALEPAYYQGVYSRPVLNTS
# Technique: EMSA with sequencing
# Molecule type: double-stranded DNA, one strand shown
# Sample: in vitro
# Tested at: 10 and 20 nM
# Notes: whole designed probe, mean of two concentrations, ends assumed
# Baseline: negative control set to 0
# Reading: higher = stronger binding
Strand,normalised bound fraction
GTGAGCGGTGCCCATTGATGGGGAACTATATCTGTAGGTATATATATATACACACAGCAAACAAAGTCTTTTGCTTTAAGTCAGGTTGATGTAATTGTCACTGTTTAGCAAAATTGCTTGTTTACTTTGCATTCAATCTCTTTTCCTTATTACCCCCCTGAAAGTTTTTATTTCTAACAAGACACTTGTATATTAAATCTTTAAATTATGTTTGGTGTTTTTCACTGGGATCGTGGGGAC,0.491 ratio
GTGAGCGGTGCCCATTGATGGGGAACGGATGGCCTGTGGATCACGCTTTGAGTAGCAAGCTATGGACTGTTCACTGGTCATATGAAAAAGATGATGACACTGATTAGGCCCACCAGCTAAGTAATCTTCGAAAACTCATTCAGCCCCATGAAGTCACTAGAGCTGTGTTAAACAGCCAGTGTGGTCAACAGAAGAAATTTATGTCATGGAAATTGCTTATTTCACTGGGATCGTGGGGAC,-0.0452 ratio
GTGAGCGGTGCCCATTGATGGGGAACGAGAGTCTGTGAATAGGTGCCTACCTCCATCCCGCACTGGGGGCATGAGAGGAGCAGGAACCTTGCATTAGACACAAAGGGTACCCAAGCCAAAATAATCTTCCATAAAGGGCCCCGCCCTGAGGTCCTTGGCATGCTACAGAATAACCTGTTCCAAGCCATGTGGGCAAGACTAAAGCGATACCCTCCCAAGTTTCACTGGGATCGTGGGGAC,-0.0729 ratio
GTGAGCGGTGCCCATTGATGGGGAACATCTTCCCCCTCTTCCTTGCCCCACCAGCTCACCTTCCCGGGTTATTTGCACAAAGGAAAATAAATAAAGCCGGCATTCGTTAACGCAGTTCTGGCGCAAACTGCTGTTTGCTCTGCATCTAACATGGTCCTTACGCGAGGCGTGGCTCCGGGAGAGCAAAGCACCGTGTCAGGCGCATGATCCGGGGTGGCCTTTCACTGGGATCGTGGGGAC,0.383 ratio
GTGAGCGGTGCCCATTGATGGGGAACACTTTTTCTGTCTGTCTCTGCAGATCCTTACAGTGCTCACTTACCTATTCTTTGACTTCAATCTCTTGTTGCTCTCTTTACTCCACATTCCAAAGTAATCTAGCCTTTTTTTTTTTTAATTTCCTTAGAGGCGTATAGTGGAAGAAAGGGAACAAATCTTGCTTAAATTCACCATCTACTAGCTACCATTTCATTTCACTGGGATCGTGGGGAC,-0.0813 ratio

# Block 2
# Target: Interferon regulatory factor 5, full length, phosphomimetic (IRF5, Homo sapiens, UniProt Q13568-2, residues 1-514, S451D/S453D/S456D/S462D)
# Technique: protein-binding microarray
# Molecule type: double-stranded DNA, one strand shown
# Sample: in vitro
# Tested at: 940 nM top
# Notes: 60-bp whole probe
# With: salmon DNA 0.4 mg/ml
# Baseline: random background probes
# Reading: higher = stronger binding
# Shared flanks, not repeated: GCCTAGCAC … GTCTTGATTCGCTTGACGCTGCTG
Strand,fitted relative affinity [z-score]
CGACATCTGCAAGATCCACAAGTGCTA,-0.386
GGGCAGGAAACGGAGGACACGTGCTAG,-0.328
TTTCCCATGAGTCTCAATATGTGCTAG,1.67
CTTGATTTTGGTCTTTCTGTGTGCTAG,0.711
GACGGACTGCTTATGCTGACGTGCTAG,-0.803
TCAAGTCTGCAACATGGGACTGTGCTA,-0.175
CTTTTTCCCTATTATATATATGTGCTA,2.34
TCATCTTTCCACTTGTCACTGTGCTAG,1.46
TTAGGTATTGGGTATCGGTTAGTGCTA,3.67
TCCATTTTGTGTTTTCATTTGTGCTAG,1.44
TTAGGACTGGGGTATTGGTTAGTGCTA,0.135
TTAGGTTTCGGTCTCGTTTAGTGCTAG,15.1
GACGGTATCGGTTTCGAGACGTGCTAG,9.76
TTAGGTATTGGGACTGGGTTAGTGCTA,0.226
TCAGGTCTCTTGTTCTCACTGTGCTAG,1.02
TCATCTTTTCATTACTGACTGTGCTAG,1.37

# Block 3
# Target: Centromere-binding protein 1, full length, N-terminal tag (CBF1, Saccharomyces cerevisiae, UniProt P17106, residues 1-351)
# UniProt P17106, sequence (whole entry, looked up): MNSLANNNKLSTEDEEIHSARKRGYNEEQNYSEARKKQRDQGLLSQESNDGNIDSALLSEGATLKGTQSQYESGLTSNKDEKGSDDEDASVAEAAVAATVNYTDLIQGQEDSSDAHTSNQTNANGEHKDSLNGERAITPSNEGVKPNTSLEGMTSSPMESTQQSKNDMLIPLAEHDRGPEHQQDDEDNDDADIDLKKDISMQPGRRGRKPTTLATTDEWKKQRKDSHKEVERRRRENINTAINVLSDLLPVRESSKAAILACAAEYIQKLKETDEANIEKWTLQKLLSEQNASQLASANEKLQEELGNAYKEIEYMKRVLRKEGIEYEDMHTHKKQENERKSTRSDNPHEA
# Technique: protein-binding microarray
# Molecule type: double-stranded DNA, one strand shown
# Sample: in vitro
# Tested at: 0.8 µM
# Notes: whole 60-bp probe, no competitor
# Reading: higher = stronger binding
Strand,fluorescence intensity [a.u.]
CTAGCACGTGATGACCACGTAATCGCATCGCCCTTCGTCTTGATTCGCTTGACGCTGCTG,15000
CTAAACTTTTGTCATCACCTGCTCTCTGAAGGTTTCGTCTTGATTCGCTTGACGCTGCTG,1290
GAAATGTCAGATCGACGTGACATGTAACATTAGTAGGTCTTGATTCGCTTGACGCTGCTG,721
GAAAGTGCACTACGTGACAAAAATAAAAAGTGTTAGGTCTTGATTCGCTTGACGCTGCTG,918
CTAAAATTCATTTATGGTGTGAGTGTGCGAGCGTTCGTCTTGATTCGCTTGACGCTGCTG,540
GAACATAATCTTGATAACGTGAAACAGTTTAACTAGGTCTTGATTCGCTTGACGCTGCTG,776
GAAAAGATTGGCGGTGGTCTGACATGTTGATTATAGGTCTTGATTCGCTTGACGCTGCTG,593
CTAAGTATTGTATCGCACGTTTCTTTTTTGTTTTTCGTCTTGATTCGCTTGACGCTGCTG,662
GAAAAAAATATTGGTGGTGCAGTTATGGACTGATAGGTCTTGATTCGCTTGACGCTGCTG,531
GAAATCCAATGCTGACAGCTGAGTATTGCAACATAGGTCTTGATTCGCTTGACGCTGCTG,508
CTAATTGGGACAAGTCACGAACAATTTTAGAGATTCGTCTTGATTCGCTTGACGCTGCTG,582
GAAATAGAAGCAAATGACATCAGAATATATATATAGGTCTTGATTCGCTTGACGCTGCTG,577
CTAGCAAATTACCATGTGAGCGTGCGGGAATAATTCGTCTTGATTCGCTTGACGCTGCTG,943
GAACTGTTCTGCGACCACGTCAATAATAGTTCCTAGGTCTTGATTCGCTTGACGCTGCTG,501
GAAGTGACGCACAATCACGGCTATGGCTCGGTGTAGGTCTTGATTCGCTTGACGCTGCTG,526
GAAAATTTAGAGCTCAACACCACCATTGAGAACTAGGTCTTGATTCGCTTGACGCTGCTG,484
GAAAATTTACTCTGTGACAATGATAAGCCAGATTAGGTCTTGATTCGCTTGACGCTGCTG,617
GAATCGTTTTCGTGTGTGGTGACGATGTATTAGTAGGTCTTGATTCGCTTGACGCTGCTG,562
GAATCGTTCTCATCTCATGTGAAAAACTATATCTAGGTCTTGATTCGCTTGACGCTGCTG,604

# Block 4
# Target: Histone acetyltransferase KAT6A, winged helix 1, GST fusion (KAT6A, Homo sapiens, UniProt Q92794, residues 1-85)
# Technique: protein binding microarray
# Molecule type: double-stranded DNA, one strand shown
# Sample: in vitro
# Tested at: not given
# Notes: 8-mer, flanks averaged, mean of 2 arrays, mostly near background
# Baseline: not given
# Reading: higher = stronger binding
# Residues (chain): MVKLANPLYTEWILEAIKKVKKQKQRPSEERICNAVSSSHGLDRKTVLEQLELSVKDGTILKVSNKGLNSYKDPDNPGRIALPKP
Strand,E-score
CTGCCTAA,-0.195
CCTAGCAG,-0.167
GGCTAGCA,0.0389
GTGGACAA,-0.0778
ACTAAGAA,-0.017
AATGGTCA,-0.225
CACGACAC,0.00715
CAATGTCG,0.00612
CAGATTAA,-0.133
ACGGTAGC,0.121
AAATCGCT,-0.00129
CGCATGAG,0.138
GTAGACCA,-0.1
TCCATGAA,-0.176
AGCTGACC,-0.144
ACACAGCC,-0.0263
CTAAGGTC,0.0335
CCTCACAA,-0.1
CAGAGCAG,-0.185
AGCAAGAT,-0.205
CACACGCA,-0.000235
GCTATAAA,0.0355
CTGGCTGA,-0.227
ACTAATCA,-0.0974

# Block 5
# Target: Sal-like protein 4, full length isoform A (SALL4, Homo sapiens, UniProt Q9UJQ4, residues 1-1053)
# UniProt Q9UJQ4, sequence (whole entry, looked up): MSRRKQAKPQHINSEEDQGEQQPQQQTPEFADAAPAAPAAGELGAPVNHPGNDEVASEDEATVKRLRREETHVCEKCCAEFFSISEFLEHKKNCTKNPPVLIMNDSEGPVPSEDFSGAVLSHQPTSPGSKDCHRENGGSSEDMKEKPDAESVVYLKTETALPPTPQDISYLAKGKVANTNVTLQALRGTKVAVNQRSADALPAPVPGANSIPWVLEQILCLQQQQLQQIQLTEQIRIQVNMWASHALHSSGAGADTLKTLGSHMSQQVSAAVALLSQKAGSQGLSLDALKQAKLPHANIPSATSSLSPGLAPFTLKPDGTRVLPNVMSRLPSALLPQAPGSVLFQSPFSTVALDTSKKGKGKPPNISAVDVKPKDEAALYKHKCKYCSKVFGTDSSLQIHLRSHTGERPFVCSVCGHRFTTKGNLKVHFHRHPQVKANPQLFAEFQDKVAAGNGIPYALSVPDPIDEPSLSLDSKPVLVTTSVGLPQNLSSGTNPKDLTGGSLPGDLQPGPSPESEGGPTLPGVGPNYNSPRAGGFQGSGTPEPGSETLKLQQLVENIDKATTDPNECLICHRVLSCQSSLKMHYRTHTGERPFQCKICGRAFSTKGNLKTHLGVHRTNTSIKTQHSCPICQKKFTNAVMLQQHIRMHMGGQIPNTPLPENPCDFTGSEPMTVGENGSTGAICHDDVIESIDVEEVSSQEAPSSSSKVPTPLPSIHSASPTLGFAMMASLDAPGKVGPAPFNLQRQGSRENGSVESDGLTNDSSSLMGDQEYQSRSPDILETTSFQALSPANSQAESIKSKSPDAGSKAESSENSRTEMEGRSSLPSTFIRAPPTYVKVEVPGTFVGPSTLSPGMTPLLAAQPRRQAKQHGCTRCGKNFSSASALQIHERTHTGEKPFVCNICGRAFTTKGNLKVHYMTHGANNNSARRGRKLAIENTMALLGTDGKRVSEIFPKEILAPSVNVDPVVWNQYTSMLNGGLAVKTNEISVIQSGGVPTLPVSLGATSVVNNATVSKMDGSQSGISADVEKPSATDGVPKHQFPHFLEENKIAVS
# Technique: universal PBM
# Molecule type: double-stranded DNA, one strand shown
# Sample: in vitro
# Tested at: 600 nM
# Notes: 8-mer, flanks averaged, mean of replicates
# Reading: higher = stronger binding
Strand,E-score
CTTAACCA,0.126
CTCTTTTC,0.0333
AAAAATTC,0.345
TAGCATGA,0.132
CTCCCAAG,-0.08
AAGAGTAG,-0.0309
AGCTACGG,-0.24
CACGATGG,-0.237
GGAATCAC,0.0211
AAGGTCGT,0.00494
CGCACGCC,-0.217
TCCTGCGA,-0.0369
CACTTGGC,-0.0744
GCCTACAC,-0.107
AACATACG,0.134
TCGGCCCA,-0.236
AACTTCCC,-0.0744
AGACGGGA,-0.179
GCATGACC,-0.315
GCGAATCA,0.0631
ATGTACAT,0.335
GGAACTGA,-0.169
AGAGAGAG,-0.163
AATGCCCA,-0.0864
GGCTTCTA,-0.0769

# Excerpt of the above (block 2):
Strand,fitted relative affinity [z-score]
GGGCAGGAAACGGAGGACACGTGCTAG,-0.328
TTTCCCATGAGTCTCAATATGTGCTAG,1.67
CTTGATTTTGGTCTTTCTGTGTGCTAG,0.711
GACGGACTGCTTATGCTGACGTGCTAG,-0.803
TCAAGTCTGCAACATGGGACTGTGCTA,-0.175
CTTTTTCCCTATTATATATATGTGCTA,2.34
